Measurements collected from several papers.
Every numbered part comes from another study and shows a few of its results, in no order.
UniProt P42336, sequence (whole entry, unmodified, looked up): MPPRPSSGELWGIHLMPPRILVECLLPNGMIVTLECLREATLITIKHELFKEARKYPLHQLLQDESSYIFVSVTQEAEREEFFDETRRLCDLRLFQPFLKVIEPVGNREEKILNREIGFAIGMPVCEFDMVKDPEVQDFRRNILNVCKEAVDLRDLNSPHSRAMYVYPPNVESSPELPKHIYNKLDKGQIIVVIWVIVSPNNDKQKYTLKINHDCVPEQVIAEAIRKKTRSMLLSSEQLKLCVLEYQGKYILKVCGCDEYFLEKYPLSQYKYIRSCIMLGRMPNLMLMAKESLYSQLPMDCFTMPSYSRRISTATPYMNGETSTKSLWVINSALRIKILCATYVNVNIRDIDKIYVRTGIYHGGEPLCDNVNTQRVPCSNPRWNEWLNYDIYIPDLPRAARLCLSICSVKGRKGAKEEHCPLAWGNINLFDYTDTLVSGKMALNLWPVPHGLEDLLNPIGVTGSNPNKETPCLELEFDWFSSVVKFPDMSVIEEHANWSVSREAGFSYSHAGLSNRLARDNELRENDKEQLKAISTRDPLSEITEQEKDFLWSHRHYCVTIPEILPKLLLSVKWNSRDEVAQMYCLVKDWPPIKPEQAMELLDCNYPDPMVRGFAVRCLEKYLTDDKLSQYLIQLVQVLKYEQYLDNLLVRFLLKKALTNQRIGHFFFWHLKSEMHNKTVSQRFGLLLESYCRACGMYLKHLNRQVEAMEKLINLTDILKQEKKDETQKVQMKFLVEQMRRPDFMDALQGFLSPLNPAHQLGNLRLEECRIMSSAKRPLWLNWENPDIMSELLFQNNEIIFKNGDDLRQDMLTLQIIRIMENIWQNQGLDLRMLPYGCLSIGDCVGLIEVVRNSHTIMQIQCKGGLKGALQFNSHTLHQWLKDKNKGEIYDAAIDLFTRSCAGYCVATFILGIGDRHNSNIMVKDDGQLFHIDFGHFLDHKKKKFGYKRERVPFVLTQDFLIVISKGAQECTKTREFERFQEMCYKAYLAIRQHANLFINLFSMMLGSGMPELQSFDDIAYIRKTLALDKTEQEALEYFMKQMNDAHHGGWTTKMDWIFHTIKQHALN
UniProt P15735, sequence (whole entry, looked up): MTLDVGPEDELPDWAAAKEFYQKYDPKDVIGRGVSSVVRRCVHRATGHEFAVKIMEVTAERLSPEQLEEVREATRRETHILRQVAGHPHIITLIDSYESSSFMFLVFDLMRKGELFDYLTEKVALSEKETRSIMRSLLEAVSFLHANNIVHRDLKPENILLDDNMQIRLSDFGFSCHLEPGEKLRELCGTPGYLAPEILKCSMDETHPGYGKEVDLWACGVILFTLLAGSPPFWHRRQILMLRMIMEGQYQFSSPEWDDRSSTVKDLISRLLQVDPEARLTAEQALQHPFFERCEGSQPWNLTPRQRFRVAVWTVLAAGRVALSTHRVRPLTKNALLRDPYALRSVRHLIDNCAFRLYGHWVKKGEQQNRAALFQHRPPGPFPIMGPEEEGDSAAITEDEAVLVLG
UniProt P37173, sequence (whole entry, looked up): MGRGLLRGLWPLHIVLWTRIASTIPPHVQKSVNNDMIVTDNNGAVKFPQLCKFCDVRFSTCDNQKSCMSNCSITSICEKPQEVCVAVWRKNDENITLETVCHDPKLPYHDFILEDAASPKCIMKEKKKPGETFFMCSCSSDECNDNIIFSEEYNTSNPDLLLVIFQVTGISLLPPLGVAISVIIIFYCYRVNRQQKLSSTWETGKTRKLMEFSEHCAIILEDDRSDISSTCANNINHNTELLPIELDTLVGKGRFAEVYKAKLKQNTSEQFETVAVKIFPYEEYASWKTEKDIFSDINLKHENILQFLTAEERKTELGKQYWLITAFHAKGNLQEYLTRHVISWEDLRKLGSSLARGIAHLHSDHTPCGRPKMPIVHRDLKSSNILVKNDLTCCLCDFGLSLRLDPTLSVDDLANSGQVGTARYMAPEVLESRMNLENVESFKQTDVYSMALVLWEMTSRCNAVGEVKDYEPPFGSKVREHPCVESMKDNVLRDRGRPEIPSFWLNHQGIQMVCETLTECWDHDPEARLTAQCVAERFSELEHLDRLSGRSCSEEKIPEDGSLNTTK
UniProt O96013, sequence (whole entry, looked up): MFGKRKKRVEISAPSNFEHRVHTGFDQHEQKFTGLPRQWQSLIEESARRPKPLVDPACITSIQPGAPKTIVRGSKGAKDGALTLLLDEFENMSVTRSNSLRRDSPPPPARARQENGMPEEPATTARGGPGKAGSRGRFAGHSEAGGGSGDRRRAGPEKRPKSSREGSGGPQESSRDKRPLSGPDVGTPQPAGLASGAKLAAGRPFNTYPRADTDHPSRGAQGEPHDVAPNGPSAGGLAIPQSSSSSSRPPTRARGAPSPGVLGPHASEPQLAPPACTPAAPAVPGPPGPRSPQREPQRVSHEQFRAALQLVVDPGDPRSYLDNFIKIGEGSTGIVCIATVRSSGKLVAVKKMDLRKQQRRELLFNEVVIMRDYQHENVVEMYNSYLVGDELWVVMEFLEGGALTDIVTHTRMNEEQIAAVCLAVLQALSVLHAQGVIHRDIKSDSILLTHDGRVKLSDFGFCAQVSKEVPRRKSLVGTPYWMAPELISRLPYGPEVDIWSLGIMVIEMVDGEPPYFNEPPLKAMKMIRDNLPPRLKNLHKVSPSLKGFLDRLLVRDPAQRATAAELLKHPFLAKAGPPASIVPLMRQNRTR
UniProt P41240, sequence (whole entry, looked up): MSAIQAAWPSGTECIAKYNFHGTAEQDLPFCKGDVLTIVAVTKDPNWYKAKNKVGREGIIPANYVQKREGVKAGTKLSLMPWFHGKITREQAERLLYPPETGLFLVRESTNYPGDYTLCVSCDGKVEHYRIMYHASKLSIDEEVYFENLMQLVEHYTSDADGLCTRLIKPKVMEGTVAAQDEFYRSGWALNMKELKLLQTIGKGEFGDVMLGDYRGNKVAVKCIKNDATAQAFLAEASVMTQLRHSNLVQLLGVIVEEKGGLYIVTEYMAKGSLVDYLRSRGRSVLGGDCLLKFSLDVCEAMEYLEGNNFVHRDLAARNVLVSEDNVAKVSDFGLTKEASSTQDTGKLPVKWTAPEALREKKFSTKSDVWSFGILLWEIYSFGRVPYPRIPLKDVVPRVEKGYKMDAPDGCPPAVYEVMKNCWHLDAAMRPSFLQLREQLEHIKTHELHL
UniProt O60674, sequence (whole entry, looked up): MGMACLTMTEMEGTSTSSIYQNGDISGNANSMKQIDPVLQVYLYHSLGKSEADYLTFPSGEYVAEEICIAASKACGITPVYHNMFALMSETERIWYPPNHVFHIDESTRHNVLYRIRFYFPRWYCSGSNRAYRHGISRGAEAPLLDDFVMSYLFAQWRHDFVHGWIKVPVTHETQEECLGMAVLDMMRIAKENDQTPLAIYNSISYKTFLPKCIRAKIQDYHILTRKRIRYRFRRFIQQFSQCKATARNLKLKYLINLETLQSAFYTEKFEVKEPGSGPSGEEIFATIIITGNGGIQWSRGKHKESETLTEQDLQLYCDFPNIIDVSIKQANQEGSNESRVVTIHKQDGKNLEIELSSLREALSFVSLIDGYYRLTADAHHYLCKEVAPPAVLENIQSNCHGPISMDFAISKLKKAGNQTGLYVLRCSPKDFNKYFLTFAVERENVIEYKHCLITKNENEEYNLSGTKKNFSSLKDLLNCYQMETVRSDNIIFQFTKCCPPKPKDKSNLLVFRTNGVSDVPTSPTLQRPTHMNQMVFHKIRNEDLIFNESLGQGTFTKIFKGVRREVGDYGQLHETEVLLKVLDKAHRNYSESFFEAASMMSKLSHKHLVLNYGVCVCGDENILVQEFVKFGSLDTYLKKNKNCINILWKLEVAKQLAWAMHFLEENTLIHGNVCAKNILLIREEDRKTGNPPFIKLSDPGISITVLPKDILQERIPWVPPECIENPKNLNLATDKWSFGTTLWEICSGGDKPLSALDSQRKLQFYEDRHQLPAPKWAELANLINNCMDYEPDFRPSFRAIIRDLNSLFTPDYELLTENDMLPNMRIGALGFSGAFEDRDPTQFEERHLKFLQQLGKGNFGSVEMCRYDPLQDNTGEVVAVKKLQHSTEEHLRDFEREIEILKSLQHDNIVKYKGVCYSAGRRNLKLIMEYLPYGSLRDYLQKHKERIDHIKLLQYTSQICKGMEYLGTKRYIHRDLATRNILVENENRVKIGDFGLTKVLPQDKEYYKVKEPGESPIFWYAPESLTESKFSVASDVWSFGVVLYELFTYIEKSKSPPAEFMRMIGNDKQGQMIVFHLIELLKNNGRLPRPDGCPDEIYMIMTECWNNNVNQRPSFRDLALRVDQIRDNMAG
UniProt Q96PN8, sequence (whole entry, looked up): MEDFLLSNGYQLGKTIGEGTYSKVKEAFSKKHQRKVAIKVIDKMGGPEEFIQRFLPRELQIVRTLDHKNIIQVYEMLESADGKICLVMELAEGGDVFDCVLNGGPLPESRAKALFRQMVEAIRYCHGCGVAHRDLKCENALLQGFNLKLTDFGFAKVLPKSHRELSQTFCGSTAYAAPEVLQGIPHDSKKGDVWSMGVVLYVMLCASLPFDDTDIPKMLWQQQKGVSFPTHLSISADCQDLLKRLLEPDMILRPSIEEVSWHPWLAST

Sample 1 — read-out: cell-free assay; method: competition with immobilised ligand; tested at: 1 µM; measurement: remaining binding
SMILES: CN([C@@H]1CCc2c(CC(=O)O)c3ccccc3n2C1)S(=O)(=O)c1ccc(F)cc1
Phosphorylase b kinase gamma catalytic chain, liver/testis isoform (PHKG2, Homo sapiens, UniProt P15735): 100%
Testis-specific serine/threonine-protein kinase 3 (TSSK3, Homo sapiens, UniProt Q96PN8): 100%
Tyrosine-protein kinase CSK (CSK, Homo sapiens, UniProt P41240): 100%
Phosphatidylinositol 4,5-bisphosphate 3-kinase catalytic subunit alpha isoform (PIK3CA, Homo sapiens, UniProt P42336, C420R): 100%
Peripheral plasma membrane protein CASK (CASK, Homo sapiens, UniProt O14936): 66%
Tyrosine-protein kinase JAK2, JH1 (JAK2, Homo sapiens, UniProt O60674): 100%
TGF-beta receptor type-2 (TGFBR2, Homo sapiens, UniProt P37173): 100%
Phosphatidylinositol 4,5-bisphosphate 3-kinase catalytic subunit alpha isoform (PIK3CA, Homo sapiens, UniProt P42336): 100%
Serine/threonine-protein kinase PAK 4 (PAK4, Homo sapiens, UniProt O96013): 100%
Ribosomal protein S6 kinase alpha-1, C-terminal kinase domain (RPS6KA1, Homo sapiens, UniProt Q15418): 100%
Ribosomal protein S6 kinase alpha-5, N-terminal kinase domain (RPS6KA5, Homo sapiens, UniProt O75582): 95%

Sample 2 — method: aptamer microarray, sandwich; form: DNA with 2'F-ANA; matrix: in vitro; tested at: 200 nM; added: Cy3 exosite-II aptamer, 400 nM; direction: higher = stronger binding; measurement: mean fluorescence intensity; sequence: GGTTGGTGTGGTTGG
Target: Prothrombin, mature alpha-thrombin (F2, Homo sapiens, UniProt P00734)
Notes: whole 15-mer aptamer, many near background
2'F-ANA at 1 2 3 7 8 14: 86.7 a.u.
2'F-ANA at 2 9 13 14: 123 a.u.
2'F-ANA at 1 3 6 8 9 11 13 14 15: 84.2 a.u.
2'F-ANA at 1 2 3 4 6 7 10 11 13: 54 a.u.
2'F-ANA at 2 3 4 5 7 8 11 12 13 15: 170 a.u.
2'F-ANA at 1 2 5 9 10 12 13 14 15: 45.9 a.u.
2'F-ANA at 1 2 5 6 7 8 9 10 13 14 15: 67.5 a.u.
2'F-ANA at 1 4 11 13 14: 45.9 a.u.

Sample 3 — read-out: enzyme activity; action: inhibitor; tested at: 0.5 µM; reference: control; measurement: remaining activity
Target: Aurora kinase C (AURKC, Homo sapiens, UniProt Q9UQB9)
Construct (Q9UQB9 1-309): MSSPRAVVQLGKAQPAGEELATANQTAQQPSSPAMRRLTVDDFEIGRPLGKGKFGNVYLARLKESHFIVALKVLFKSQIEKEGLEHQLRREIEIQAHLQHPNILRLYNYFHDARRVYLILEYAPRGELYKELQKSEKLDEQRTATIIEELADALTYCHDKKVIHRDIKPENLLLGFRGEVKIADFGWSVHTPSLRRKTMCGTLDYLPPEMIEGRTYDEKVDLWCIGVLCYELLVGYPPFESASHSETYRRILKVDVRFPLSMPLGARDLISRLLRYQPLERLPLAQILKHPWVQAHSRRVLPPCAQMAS
OCC(O)CCON=C1C(c2c(O)[nH]c3ccccc23)=Nc2ccccc21 (stereo not drawn): 43.2%
O=C(Nc1cccc(Nc2cc(Nc3cccc(C(F)(F)F)c3)ncn2)c1)C1CC1: 104%
C#Cc1cccc(Nc2ncnc3cc(OCCOC)c(OCCOC)cc23)c1: 88.2%
O=C1NC(=O)C(c2cn(CCCn3ccnc3)c3ccccc23)=C1Nc1ccccc1: 89.8%
CC(C)[C@H](CO)Nc1nc(Nc2cc(N)cc(Cl)c2)c2ncn(C(C)C)c2n1: 91.9%
COc1cc2ncnc(Nc3ccc(F)c(Cl)c3)c2cc1OCCCN1CCOCC1: 89.7%
COc1ccc(OC)c2c(=S)c3ccccc3[nH]c12: 88.2%
O=C(CCCc1ccc(-c2ccccc2F)cc1)Nc1ccc(O)cc1: 95.4%
COc1ccc(CNC(=O)Nc2ncc([N+](=O)[O-])s2)cc1: 98.4%
NCCNc1ncc(C(N)=O)c(Nc2cccc(C(F)(F)F)c2)n1: 82.2%
Nc1ncnc2n[nH]c(Nc3ccc(F)cc3)c12: 96%
CCOC(=O)c1c(C)[nH]c(/C=C2\C(=O)Nc3ccccc32)c1C: 89.1%
O=S(=O)(c1cccc2cnccc12)N1CCCNCC1: 97.4%
Cn1c2ccccc2c2c3c(c4c5ccccc5n(CCC#N)c4c21)CNC3=O: 55.7%
COc1ccc(C(=O)Nc2sc3c(c2C(N)=O)CCCC3)cc1OC: 97.2%

Sample 4 — method: RNA Bind-n-Seq; form: RNA; matrix: in vitro; tested at: 100 nM; reference: input RNA pool; direction: higher = stronger binding; measurement: bound/input enrichment
Target: RING finger protein unkempt homolog, zinc fingers 1-6, SBP tag (UNK, Homo sapiens, UniProt Q9C0B0, residues 30-357)
UniProt Q9C0B0, sequence (30-357, looked up): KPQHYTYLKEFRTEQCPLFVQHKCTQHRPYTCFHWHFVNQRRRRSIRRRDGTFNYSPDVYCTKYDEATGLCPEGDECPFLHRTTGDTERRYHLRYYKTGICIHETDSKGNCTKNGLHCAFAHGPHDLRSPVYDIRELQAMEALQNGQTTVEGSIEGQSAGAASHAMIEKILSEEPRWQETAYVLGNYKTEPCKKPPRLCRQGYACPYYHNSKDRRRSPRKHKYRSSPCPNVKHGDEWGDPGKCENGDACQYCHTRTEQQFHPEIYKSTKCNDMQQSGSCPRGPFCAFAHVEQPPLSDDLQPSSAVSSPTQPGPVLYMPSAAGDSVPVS
Notes: RNA with constant flanks, vertebrate orthologous sites, ends assumed
Shared flanks, not repeated: GGGAGUUCUACAGUCCGACGAUC … CAACAGAGGAUUGAGCAUCA
GUACUGCCCGUGCAAAUCCCACAACACUGAAUGCAAAGUAGCAAUUUCCAUAGUCACAGUUAGGUAGCUUUAGGGCAAUAUUGCCAUGGUUUUAUUCAUGUGCAGGUUUUGAAAAUGUAC: 1.64 ratio
AGUUUGUAUGUACAUUAUUCACAUUCCUCUCUGUUGUGUUUUGGGGGAAAAAAAGACAUUUUAGCCUUUUUUAAGGUUAUUGAUUUAAUUUUAUGUUAUUUGGUUGCAUGAAGUUGCCCU: 0.448 ratio
CCAGUUUUCCAUAUAGGGUUGGCCUCAAAUCUAUAGGAUUUUUGACAAAUGUACCAUAUCUAGUUGUGUUGUUUUACUAUUUUUUUAUUAGCCUGUAAAUAAAGAUGGCAUCUCUCCUAU: 0.925 ratio
AACUAAGAACUCUUGCAGUCUUAGAUGUUAUAAAAUAUAUAUCUGAAUUGUAAGAGUUGUUAGCACAGGUUUCUUUUUUUUUUUUUUAAGUACUUGUUUUGGGUACAAGGCAUUUCUGAA: 0.237 ratio
CUUAGUUAGAGCUUACCAUAUAUUUCAUAAAGGAGAAUCUUUAUAAUUUUGUUUGUCAUACAGUAUUUUGGAAUUUGUAUAAUGAGGAUGUUUAGAAGCCAUAUUAGUGGCUUUUUUUAA: 0.451 ratio
CAUCUCUCAUUUUAUAUAUCCAAAAAUGGCUUUGAAUUUUUAAAGAAUUGCUAUUUUAAUUAGUUUUGCCCUCAUGAGGUAUUAUUAUAGUUUACCACAAACAGAUAUCUGUCUGAAUUA: 1.08 ratio
CGCCGCCAUGGUGGACGGCUCUGAGCUGAAGAAAGUGCGAUCCAACUCCCGCGUCUACCACCGCUACUUCCUCCUGGACGCCGACAUGCAGUCUCUGAGAUGGGAGCCCACCAAGAAGGA: 0.366 ratio
CCCUUUUGUUUUUGUUUUGUUGUUUUUUUAGUUUAGUGUUUUUAUUUUUAAUCUUUUUGGUAGUUGUUGUUACCCACGCCAUUUUACGUCUCCUUCACUGAAGGGCUAGAGUUUUAACUU: 10.1 ratio

A few entries again (sample 2):
2'F-ANA at 1 2 3 4 6 7 10 11 13: 54 a.u.
2'F-ANA at 1 4 11 13 14: 45.9 a.u.
2'F-ANA at 1 3 6 8 9 11 13 14 15: 84.2 a.u.
2'F-ANA at 1 2 5 9 10 12 13 14 15: 45.9 a.u.
2'F-ANA at 1 2 5 6 7 8 9 10 13 14 15: 67.5 a.u.
2'F-ANA at 2 9 13 14: 123 a.u.
